Results gathered from unrelated publications.
Numbered parts are unrelated; each lists some results of a single study. Substitutions count along the parent as printed.
UniProt P62837, sequence (whole entry, looked up): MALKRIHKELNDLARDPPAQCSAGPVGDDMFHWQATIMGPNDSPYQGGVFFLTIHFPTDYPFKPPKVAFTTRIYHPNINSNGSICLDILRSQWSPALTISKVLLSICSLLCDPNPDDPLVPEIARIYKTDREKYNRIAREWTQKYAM

Block 1 — target: DDIT3, bZIP domain (human); technique: DHFR protein complementation; medium: yeast; reference: wild-type JUN-FOS pair; direction: higher = stronger binding; measurement: binding fitness
Notes: single substitutions, most at no-binding floor
Starting sequence: JUN, bZIP domain (human); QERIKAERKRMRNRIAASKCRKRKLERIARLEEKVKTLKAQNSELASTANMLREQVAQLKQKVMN; partner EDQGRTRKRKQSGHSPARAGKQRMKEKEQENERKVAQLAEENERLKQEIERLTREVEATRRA
K34S: -0.0547 natural log
L31S: -0.521 natural log
E32L: -0.423 natural log
A46F: -0.21 natural log
L45C: -1.21 natural log
S47I: 0.0575 natural log
T37R: 0.0693 natural log
L59T: -0.324 natural log

Block 2 — technique: RNA Bind-n-Seq; form: RNA; medium: in vitro; concentration: 90 pmol; notes: 4-mer, random 30-nt RNA, single round; together with: 3 µM DMDA-PatA, 2 mM ADP, 2 mM phosphate; reference: input library; direction: higher = stronger binding; measurement: 4-mer enrichment
Target: ATP-dependent RNA helicase DDX3X, helicase core (DDX3X, Homo sapiens, UniProt O00571, residues 132-607)
UniProt O00571, sequence (132-607, looked up): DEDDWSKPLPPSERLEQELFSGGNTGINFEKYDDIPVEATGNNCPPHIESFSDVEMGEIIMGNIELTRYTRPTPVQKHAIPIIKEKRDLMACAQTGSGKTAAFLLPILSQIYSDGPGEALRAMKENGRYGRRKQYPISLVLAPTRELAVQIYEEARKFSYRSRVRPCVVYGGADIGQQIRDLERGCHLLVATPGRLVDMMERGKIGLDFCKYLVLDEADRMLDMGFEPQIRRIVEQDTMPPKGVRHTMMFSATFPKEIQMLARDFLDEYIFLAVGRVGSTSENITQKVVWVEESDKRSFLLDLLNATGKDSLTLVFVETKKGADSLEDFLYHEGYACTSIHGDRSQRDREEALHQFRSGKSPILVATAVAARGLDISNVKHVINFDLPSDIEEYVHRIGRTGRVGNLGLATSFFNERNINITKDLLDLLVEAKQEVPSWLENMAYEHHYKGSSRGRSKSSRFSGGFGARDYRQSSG
AAUC: 0.929 fold
AUCU: 0.808 fold
CGAU: 0.755 fold
GUAU: 1.05 fold
AACG: 0.951 fold
CUCC: 1 fold
AACC: 0.943 fold
CCUA: 0.881 fold

Single results of other studies
HSP90AB1 (Homo sapiens, UniProt P08238)  interaction screen (MAP1B (Homo sapiens, UniProt P46821); cross-linking MS; hits only): cross-linked
PEDRESLKSACVVCLSSFKSCVFLECGHVCSCTECYRALPEPKKCPICRQAITRVIPLY (MUL1 RING domain (UniProt Q969V5))  lacZ reporter activity (UBE2D2 UBC core domain (UniProt P62837); yeast two-hybrid; yeast; mostly zero background; reference: not given, higher = stronger interaction): 12300
PSMB1 (Homo sapiens, UniProt P20618)  interaction screen (PSMB7 (Homo sapiens, UniProt Q99436); cross-linking MS; hits only): cross-linked
TXNDC9 (Homo sapiens, UniProt O14530)  interaction screen (CCT3 (Homo sapiens, UniProt P49368); cross-linking MS; hits only): cross-linked
MYO18B (Homo sapiens, UniProt Q8IUG5)  cross-linked residues (SCN8A (Homo sapiens, UniProt Q9UQD0); cross-linking MS; cell fractions; together with: DMTMM): K796 to E507

Excerpt of the above (block 1):
L45C: -1.21 natural log
E32L: -0.423 natural log
T37R: 0.0693 natural log
